Published values of several laboratories.
A part holds a random share of what one study measured.

Study 1
Target: Histone acetyltransferase KAT6A, winged helix 1, GST fusion (KAT6A, Homo sapiens, UniProt Q92794, residues 1-85)
Method: protein binding microarray
Form: double-stranded DNA, one strand shown
Medium: in vitro
Tested at: not given
Setting: 8-mer, flanks averaged, mean of 2 arrays, mostly near background
Reference: not given
Direction: higher = stronger binding
Target sequence (chain): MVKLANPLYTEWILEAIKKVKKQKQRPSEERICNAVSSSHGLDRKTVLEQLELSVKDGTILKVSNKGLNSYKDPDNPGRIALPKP
The E-score of `AGATCCAT` is reported as -0.0703.
`GATATTTA` gave an E-score of -0.0714.
`ATGTACGC` has an E-score of 0.109.
`CCCATAAA` gave an E-score of -0.164.
`CCGAGCTC` has an E-score of 0.0362.
With `ATATGCGG` the E-score was 0.266.
For `TCTCTTAA`, the E-score was -0.178.
`AGATAACC` has an E-score of -0.138.

Study 2
Target: Sal-like protein 4, full length isoform B (SALL4, Homo sapiens, UniProt Q9UJQ4-2, residues 1-616)
Method: universal PBM
Form: double-stranded DNA, one strand shown
Medium: in vitro
Tested at: not given
Setting: 8-mer, flanks averaged, mean of replicates
Direction: higher = stronger binding
The E-score of `ACTGGGCT` is reported as -0.253.
The E-score of `GATAAGTA` is reported as 0.221.
`CTAATTAA` gave an E-score of 0.267.
The E-score of `CGCCGGGA` is reported as -0.324.
For `CATCCGAG`, the E-score was -0.193.

Study 3
Target: Interferon regulatory factor 5, full length, phosphomimetic (IRF5, Homo sapiens, UniProt Q13568-2, residues 1-514, K96S/S451D/S453D/S456D/S462D)
Method: protein-binding microarray
Form: double-stranded DNA, one strand shown
Medium: in vitro
Tested at: 250 nM
Setting: 60-bp whole probe
Added: salmon DNA 0.4 mg/ml
Reference: random background probes
Direction: higher = stronger binding
All sequences stand within: GCCTAGCAC … GTCTTGATTCGCTTGACGCTGCTG
The log fluorescence of `TTAGGTATACTTCTCCTTTAGTGCTAG` is reported as 0.128 z-score.
With `GGGCCCATCATTCCGACCCTGTGCTAG` the log fluorescence was -0.376 z-score.
The log fluorescence of `GACGGTATCGGGTATCAGGACGTGCTA` is reported as 3.24 z-score.
For `GGATGAGTCACTTCTGGTGCTGTGCTA`, the log fluorescence was -0.0707 z-score.
For `TTAGGACGGCTACTGCTTTAGTGCTAG`, the log fluorescence was -0.449 z-score.
The log fluorescence of `GACGGACAGGGTATCGGGACGTGCTAG` is reported as -0.0761 z-score.

Mixed results
`PhoQ, residues 284 288 289 292 302 303 SVTLVV` has a fold induction of 5.3 (PhoP, residues 12 14 15 18 19 YHFSH (Escherichia coli, UniProt P23836); Sort-seq, refers to: YFP reporter; E. coli; PhoQ-PhoP variant library, added: 10 µM Mg2+; reference: high Mg2+ state, higher = stronger signaling).

Some of these lines once more (study 3):
For `TTAGGACGGCTACTGCTTTAGTGCTAG`, the log fluorescence was -0.449 z-score.
With `GGGCCCATCATTCCGACCCTGTGCTAG` the log fluorescence was -0.376 z-score.
For `GGATGAGTCACTTCTGGTGCTGTGCTA`, the log fluorescence was -0.0707 z-score.
